Assay results gathered from unrelated publications.
Every numbered part comes from another study and shows a few of its results, in no order.

Set 1 — technique: protein-binding microarray; molecule type: double-stranded DNA, one strand shown; matrix: in vitro; concentration: 940 nM top; notes: 60-bp whole probe; with: salmon DNA 0.4 mg/ml; baseline: random background probes; reading: higher = stronger binding; all sequences stand within: GCCTAGCAC … GTCTTGATTCGCTTGACGCTGCTG
Target: Interferon regulatory factor 5, full length, phosphomimetic (IRF5, Homo sapiens, UniProt Q13568-2, residues 1-514, S451D/S453D/S456D/S462D)
`GACGCTTTCCTTATCCTGACGTGCTAG` — result for “fitted relative affinity”: 1.29 z-score.
For `TTAGGTTTCGGTTCCGGGTAGTGCTAG`, “fitted relative affinity” read 14.3 z-score.
For `TCATATCCCTAATCTCAGACTGTGCTA`, “fitted relative affinity” read 1.22 z-score.
Under “fitted relative affinity”, `TCAGTTTTCTTTTCCATACTGTGCTAG` is recorded as 2.18 z-score.
`TTAGATTTCGGGTTTCGAGTAGTGCTA`: “fitted relative affinity” 2.86 z-score.
`GACGGTTTCCTTCACCTGACGTGCTAG` — result for “fitted relative affinity”: 1.6 z-score.
`TTAGGTATCGACTATCGGTTAGTGCTA` — result for “fitted relative affinity”: 5.41 z-score.
`GACGGTTTCGACTTCCGGGACGTGCTA` — result for “fitted relative affinity”: 8 z-score.
For `TTGGGTATCGGGTTTCGGTTAGTGCTA`, “fitted relative affinity” read 7.58 z-score.
Under “fitted relative affinity”, `GACGGTATCGGTATCAGGACGTGCTAG` is recorded as 8.09 z-score.
Under “fitted relative affinity”, `CACGGTTCCGGTTTCGGGACGTGCTAG` is recorded as 4.79 z-score.
`TTAGAAGTGGGGACTGGATTAGTGCTA`: “fitted relative affinity” -0.0192 z-score.
Under “fitted relative affinity”, `GACGGTGTCGACACTGGGGACGTGCTA` is recorded as -0.0759 z-score.
`TTAGGTCTGGGTCTCGGTTAGTGCTAG`: “fitted relative affinity” 1.49 z-score.
`GACGATTTCAGTCTCCAGACGTGCTAG` — result for “fitted relative affinity”: 0.58 z-score.
Under “fitted relative affinity”, `GACGATCTCAGTTCCGAGACGTGCTAG` is recorded as 0.509 z-score.
Under “fitted relative affinity”, `TTTGGACTGGACACTGGGTTAGTGCTA` is recorded as -0.461 z-score.
`ATTACTTTAGGTTCCCAGGTGTGCTAG`: “fitted relative affinity” 0.277 z-score.
Under “fitted relative affinity”, `TTAGGTTTCGGGTATCGGTTCGTGCTA` is recorded as 11 z-score.
Under “fitted relative affinity”, `GACAGTTTCGACTATCGGGACGTGCTA` is recorded as 9.52 z-score.
`GTAGGTCTCGGTTTCGGTTAGTGCTAG`: “fitted relative affinity” 9.19 z-score.
`GCCGATATCAGTATCGAGACGTGCTAG`: “fitted relative affinity” 2.72 z-score.
`GACGATCTCAGACTGGAGAGGTGCTAG` — result for “fitted relative affinity”: -0.406 z-score.

Set 2 — technique: aptamer microarray, sandwich; molecule type: DNA with 2'F-ANA; matrix: in vitro; concentration: 200 nM; with: Cy3 exosite-II aptamer, 400 nM; reading: higher = stronger binding; oligonucleotide: GGTTGGTGTGGTTGG
Target: Prothrombin, mature alpha-thrombin (F2, Homo sapiens, UniProt P00734)
Notes: whole 15-mer aptamer, many near background
Under “mean fluorescence intensity”, `2'F-ANA at 5 6 7 9 10 15` is recorded as 50.6 a.u.
Under “mean fluorescence intensity”, `2'F-ANA at 1 4 9 10 11 12 15` is recorded as 59.4 a.u.
`2'F-ANA at 1 2 3 4 7 8 9 11 12 14` — result for “mean fluorescence intensity”: 75.9 a.u.
`2'F-ANA at 1 2 3 4 5 6 7 8 9 12 13 14` — result for “mean fluorescence intensity”: 66.1 a.u.
`2'F-ANA at 1 3 4 6 10 12 13 14` — result for “mean fluorescence intensity”: 58.3 a.u.
`2'F-ANA at 5 9 10 14 15`: “mean fluorescence intensity” 43.8 a.u.
`2'F-ANA at 2 3 4 6 7 9 11 12 13 15`: “mean fluorescence intensity” 424 a.u.
`2'F-ANA at 4 5 6 10 11 12 13 14 15` — result for “mean fluorescence intensity”: 47.2 a.u.
For `2'F-ANA at 2 3 4 5 8 10 11 12 13`, “mean fluorescence intensity” read 52.1 a.u.
For `2'F-ANA at 2 3 7 8 9 12 13`, “mean fluorescence intensity” read 937 a.u.
For `2'F-ANA at 2 4 6 7 8 9 12 13`, “mean fluorescence intensity” read 369 a.u.
Under “mean fluorescence intensity”, `2'F-ANA at 2 4 9 12 15` is recorded as 666 a.u.
`2'F-ANA at 2 11 12 14`: “mean fluorescence intensity” 192 a.u.
Under “mean fluorescence intensity”, `2'F-ANA at 4 5 6 7 8 10 13 15` is recorded as 55.3 a.u.
`2'F-ANA at 3 8 9 11 12 15`: “mean fluorescence intensity” 1190 a.u.
`2'F-ANA at 1 6 8 11 12 13 14 15`: “mean fluorescence intensity” 66.4 a.u.
Under “mean fluorescence intensity”, `2'F-ANA at 3 4 8 13 14` is recorded as 381 a.u.
`2'F-ANA at 3 4 6 7 8 9`: “mean fluorescence intensity” 673 a.u.
`2'F-ANA at 2 3 4 6 7 10 11 12 13` — result for “mean fluorescence intensity”: 214 a.u.
For `2'F-ANA at 4 5 12 13 15`, “mean fluorescence intensity” read 87.7 a.u.
`2'F-ANA at 3 6 7 8 10 11`: “mean fluorescence intensity” 548 a.u.
For `2'F-ANA at 2 3 4 9 12 13 15`, “mean fluorescence intensity” read 610 a.u.
For `2'F-ANA at 2 3 4 6 7 8 9 10`, “mean fluorescence intensity” read 357 a.u.
`2'F-ANA at 1 3 4 6 7 9 10 12 15` — result for “mean fluorescence intensity”: 96.2 a.u.
`2'F-ANA at 1 5 9 11 12 13 14 15` — result for “mean fluorescence intensity”: 48.8 a.u.

Set 3 — technique: RNA Bind-n-Seq; molecule type: RNA; matrix: in vitro; concentration: 365 nM; baseline: no-protein control; reading: higher = stronger binding
Target: RNA binding protein fox-1 homolog 2, RRM domain, GST-SBP tag (RBFOX2, Homo sapiens, UniProt O43251-10, residues 100-194)
Notes: natural RNA segment, single round, ends assumed
All sequences stand within: GGGAGUUCUACAGUCCGACGAUC … UGGAAUUCUCGGGUGCCAA
Residues (chain): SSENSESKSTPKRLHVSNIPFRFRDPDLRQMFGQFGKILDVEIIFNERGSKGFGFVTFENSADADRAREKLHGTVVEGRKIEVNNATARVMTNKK
`UUCUAUAUAUUCUAUAUAAAUAUAUAUUGUGGAUGGCCGCCAUGGCGAGUGGUGGCUGGGGCUUUUCUAGGGGCGGGGGACGGGUGGCCCGGCCCCCUCAUCACAAUCAG`: “RBNS enrichment (R)” 0.485.
`CCUGGGCGACAGAACGAGACGCCAUCAAUAAAUAAAUAAAUAAAGUAAAGUAAAAAACCUAUUAAAUUGAGGCUAGAGCUGGAGAUGUAAUUGGUUUUUGAGAAACAUUA` — result for “RBNS enrichment (R)”: 0.544.
For `AACUACUUGUAGUGAGGGUGCUGUGUGUGCUUUUCUUAAAUAUUUAUUUUUUUCAACAUGCUUUCAACCUGUCAACAAAAACAAAACACACAAAAAAAGGGCAGUGUUUG`, “RBNS enrichment (R)” read 0.583.
`GAGUGCCACAGGAAGGGUAGGCCCUGGGACAGUGGCUUCAAGUGUCUUUGAGCAAGUAGGCAAGAUAAGCUCUUCCUUCGUCACAGCCAUGACCAUCAGGUUAGUAACCG`: “RBNS enrichment (R)” 0.46.
`CUGAGCAGGCGCUUCCAUUGCCGUCUCACUAUGAGAGCAUACCUGGAUGUCCAGGCAAGACUGGGCGAAGUUUCUGAGUGGCCCUUUGUUUAGGUGACGUCCUCAGACCU`: “RBNS enrichment (R)” 0.249.
`GCCUCUCUAGAGCCCCCAAAGUCAGGCAGCAGCUGGAGUAGUUACAUUGUCAUCAUCUUUUUUUUUGAGACAGUUUCGCUCUGUUGCCCAGGCUGGAGUGCAGUGGUGUG` — result for “RBNS enrichment (R)”: 0.681.
`CACUGGGACCCUUGAGCCAAGGGCAGUCCCUACCAGGUGCCCAAGCCGCAAGUCUCAGGGGGCUUUUGUCUGAGGACCUUCUUGGGGCCAGUCUCUGAGGACGCUGCCAC`: “RBNS enrichment (R)” 0.209.
`UCACUUCAGGAGCAAGCUGUUUGCUGUGCUUACCCUUCACCUCAGUGCAGAGGUCUCCAGUGCCGAGCACAGGCACCUGCCAUCAGUAGUUCCUGUGUCAUCUUCACAUC` — result for “RBNS enrichment (R)”: 0.338.
`GUGUAUUUUUGUUUUUUAUAGUUCUAGGUUUACAACAGAGAGGAGUUAAUUUAUCAACAGCCUAAAACUGUUGCCAGGUCAUCUUACAGUUUAAAACAUGCCAUCUCAUC`: “RBNS enrichment (R)” 0.383.
Under “RBNS enrichment (R)”, `AAGCUUCUAUGGUUGACAUUGUAUAUAUAAUUUUUUAAAAAGGUUUUCUAUAUGGGGAUUUUCUAUUUAUGUAGGUAAUAUUGUUCUAUUUGUAUAUAUUGAGAUAAUUU` is recorded as 1.32.
`GUGCAAAUAGAAUUAGCAGUAAGAAGCUACUCUAGCUAAUUUGCCAUUUUACUUAAAUGGAAAAUGUUUUUCAAAUAAAUACUUAUGUUGUUCAUGUUCCAAGUUAUUCA` — result for “RBNS enrichment (R)”: 0.549.
Under “RBNS enrichment (R)”, `AAAAAAAACACCCAUCCCUCAAAAAGGCCAAGGUCCCGUCCCCCUGUUGUCGGUGAUUUGUUUGUCUUUCUGAUAGGUUGAAAAUUGUGUAAUAAACUUGAUGACGCUGU` is recorded as 0.27.

Set 4 — technique: protein binding microarray; molecule type: double-stranded DNA, one strand shown; matrix: in vitro; concentration: not given; baseline: not given; reading: higher = stronger binding
Target: Histone acetyltransferase KAT6A, both winged helices, GST fusion (KAT6A, Homo sapiens, UniProt Q92794, residues 1-181)
Notes: 8-mer, flanks averaged, mean of 2 arrays, mostly near background
Target sequence (chain): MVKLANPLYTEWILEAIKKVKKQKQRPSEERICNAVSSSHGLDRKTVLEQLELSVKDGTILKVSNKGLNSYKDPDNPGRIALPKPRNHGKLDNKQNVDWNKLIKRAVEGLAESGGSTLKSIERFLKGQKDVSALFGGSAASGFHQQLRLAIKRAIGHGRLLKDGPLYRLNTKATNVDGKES
The E-score of `GTACATAA` is reported as -0.00061.
`TATACGCA` has an E-score of 0.0776.
`GGTATGCA` gave an E-score of -0.122.
For `CATAGACA`, the E-score was -0.079.
For `CATAGGCA`, the E-score was -0.0969.
The E-score of `AACAGCTC` is reported as -0.0625.
The E-score of `TCAGATGA` is reported as -0.166.
`ATTGATGC` gave an E-score of 0.0673.
With `CTGATTTC` the E-score was -0.173.
The E-score of `CTTGCTGC` is reported as -0.0556.
The E-score of `ACGATTGC` is reported as 0.0921.
For `AATCCCGT`, the E-score was 0.213.
`GCCACGTA` gave an E-score of -0.0581.
For `AATATCAG`, the E-score was -0.2.
`AACAGGAT` gave an E-score of -0.154.
For `GATGATGA`, the E-score was -0.075.
The E-score of `GGTCAGAC` is reported as 0.00112.
The E-score of `GCGAGACA` is reported as 0.00155.
With `GTTGCAAC` the E-score was 0.029.
With `ACAGCGGC` the E-score was 0.27.
The E-score of `AGCACGTC` is reported as -0.0304.
`TCGGACCA` gave an E-score of 0.0121.
With `ACACCTAA` the E-score was -0.117.
With `CTGTGCTA` the E-score was -0.000705.
The E-score of `GGGCGAAA` is reported as -0.0423.
